Measured values from different studies.
Lines come from different studies, so protocols differ. Several values in a cell are separate wells, animals, samples, runs or records. ± marks the error that the study gave.
ABL1: Tyrosine-protein kinase ABL1 (ABL1, Homo sapiens, UniProt P00519)

| Compound | target | assay | conditions | measurement | result |
| --- | --- | --- | --- | --- | --- |
| Cc1nc(Nc2ncc(C(=O)Nc3c(C)cccc3Cl)s2)cc(N2CCN(CCNC(=O)c3ccc(C(=O)c4ccc(OCC(=O)NCCOCCOCCCCCCCl)cc4)cc3)CC2)n1 | ABL1 | – | – | IC50 | < 4 nM |
| CN1CC[C@@H](COc2cnc(C#N)cc2-c2ccn3nc(NC(=O)C4CC4)cc3c2)C1 | ABL1 | – | – | Ki | 225 nM |
| C=CC(=O)Oc1ccc(OC)c(-c2c[nH]c3ncc(-c4cncc(C(=O)N(C)C)c4)cc23)c1 | ABL1 | kinase activity, inhibitor, HTRF | 1 h preincubation, together with: ATP 20 µM | IC50 | 15.3 nM and 15 nM |
| Cc1nn(-c2cccc(N)c2)c(=O)c2cnc(Nc3ccc(N4CCNCC4)cc3)nc12 | ABL1 | enzyme activity, inhibitor | – | IC50 | 720 nM |
| COCC1CN(C2CCN(c3cc(OC)c(Nc4ncc(Br)c(Nc5ccc6c(c5P(C)(C)=O)OCCO6)n4)cc3C)CC2)C1 | ABL1 | enzyme activity, inhibitor | – | IC50 | 86 nM |
| COc1ccc(OC(C)=O)cc1-c1c[nH]c2ncc(-c3cncc(C(=O)N(C)C)c3)cc12 | ABL1 | kinase activity, inhibitor, HTRF | 1 h preincubation, together with: ATP 20 µM | IC50 | 5.5 ± 0.6 nM |
| CCN(CC)CC(=O)Nc1cccc(-n2cc(-c3ccc4ccc(-c5cn(-c6cccc(NC(=O)CN(CC)CC)c6)nn5)cc4c3)nn2)c1 | Tyrosine-protein kinase ABL1, non-phosphorylated (ABL1, Homo sapiens, UniProt P00519) | enzyme activity, inhibitor | – | IC50 | > 10000 nM |
| C=CS(=O)(=O)Oc1ccc(OC)c(-c2c[nH]c3ncc(-c4cncc(C(=O)N(C)C)c4)cc23)c1 | ABL1 | kinase activity, inhibitor, HTRF | 1 h preincubation, together with: ATP 20 µM | IC50 | 43.1 ± 4.6 nM |
| CC(=O)NCCNc1ncc(C(=O)NC2=NN(c3ccc(Cl)c(Cl)c3)CC2)c(C)n1 | Tyrosine-protein kinase ABL1, myristoyl pocket (ABL1, Homo sapiens, UniProt P00519) | – | – | Kd | 56 nM |

Some of these lines once more:
| Compound | target | assay | conditions | measurement | result |
| --- | --- | --- | --- | --- | --- |
| CN1CC[C@@H](COc2cnc(C#N)cc2-c2ccn3nc(NC(=O)C4CC4)cc3c2)C1 | ABL1 | – | – | Ki | 225 nM |
